Results pooled from the literature.
Numbered parts are unrelated; each lists some results of a single study.

Block 1 — technique: protein binding microarray; form: double-stranded DNA, one strand shown; medium: in vitro; concentration: not given; reference: not given; reading: higher = stronger binding; quantity: E-score
Target: Histone acetyltransferase KAT6A, winged helix 2, GST fusion (KAT6A, Homo sapiens, UniProt Q92794, residues 85-181)
Notes: 8-mer, flanks averaged, mean of 2 arrays, mostly near background
Residues (chain): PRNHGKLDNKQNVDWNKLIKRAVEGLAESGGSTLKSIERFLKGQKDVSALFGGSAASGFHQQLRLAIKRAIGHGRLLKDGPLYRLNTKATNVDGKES
AAGTCCAA: 0.0747
ATTGCGTA: -0.00167
CTATAGTC: -0.291
ACTGATGC: -0.149
AATCGAGA: 0.0503
AGCCAGTC: -0.155
ACTAAATA: 0.0228
CGGGTCTC: -0.0199
AATTTCCA: -0.122
AATCATGT: -0.193
TGAGTACA: -0.0588
TGGCAAAA: 0.12
ACATAATC: -0.253
AGGATTTC: 0.105
AGGTCCTC: -0.0913
GAACAAAC: 0.106
ATAAATTA: 0.168
ACCTCCAA: 0.0209
TCCTACAA: 0.164
ACCTGTTG: -0.00958
AGGTAATC: -0.0198
GGGTTTGA: -0.0431
AGGCTTCG: -0.0694
GGTGTAGA: -0.086
AGAGAGGA: -0.0189

Block 2 — technique: RNAcompete; form: RNA; medium: in vitro; concentration: 20 nM; notes: 7-mer, probes averaged, single round; reference: mean of 7-mers; reading: higher = stronger binding; quantity: 7-mer Z-score
Target: PABPC1L2, full length, GST fusion (mouse, UniProt A0ABA7IW68)
Residues (chain): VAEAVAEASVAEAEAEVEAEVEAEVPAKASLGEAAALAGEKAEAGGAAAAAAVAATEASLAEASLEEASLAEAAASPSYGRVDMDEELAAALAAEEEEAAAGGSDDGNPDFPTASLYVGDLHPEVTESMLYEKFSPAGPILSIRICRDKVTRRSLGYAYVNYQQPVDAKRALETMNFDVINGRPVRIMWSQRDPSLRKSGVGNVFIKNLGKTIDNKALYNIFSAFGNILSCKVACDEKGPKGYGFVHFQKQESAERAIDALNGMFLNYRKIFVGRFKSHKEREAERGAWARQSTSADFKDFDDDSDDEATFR
GCUCAGA: 0.0859
AGUAAUC: -0.133
GCCAAUC: -0.271
AGGAGCC: -0.0301
CAAGCCU: -0.266
GUAUGCC: -0.26
GGCCCGA: -0.0319
GUCAUAA: 0.34
AAAACAC: 6.18
CAGAACU: -0.0591
CAAUCUG: -0.0881
GGCUGAA: 0.329
ACUAUCG: -0.253
CAGUGGA: 0.162
GUAUAGA: -0.103
UGAAUGA: -0.0409
CUAGCAC: -0.26
UUCUGUA: -0.304
CUUCAUG: -0.331
GUUACUU: -0.208
CCCUUGC: -0.483
AUCCAAG: -0.0446
GUGCCCU: -0.209
AGGACAA: 0.577
GGUCGAC: 0.00798

Block 3 — technique: RNA Bind-n-Seq; form: RNA; medium: in vitro; concentration: 200 nM; notes: whole 134-nt RNA, ends assumed; added: 150 mM LiCl; reference: input library; reading: higher = stronger binding; quantity: log2 enrichment; all molecules: 7-deaza-guanosine replaces G
Target: Fragile X messenger ribonucleoprotein 1, C-terminal low-complexity region (Fmr1, Mus musculus, UniProt P35922)
Shared flanks, not repeated: GGGAGUUCUACAGUCCGACGAUC … UGGAAUUCUCGGGUGUCAAGG
GUCCUGUGCUACACAUCGUAUGUACCGAAUCGGGGAAAAAGGGGAAAAAGGGAAAAAGGAAAGUAUUAUGUUACGCCGUUCGGAUCUGCA: 0.565
UAACUUUAGAGGAGGAUCAGAUGGAUAUGGCAGUGGACGUGGAUUUGGGGAUGGCUAUAAUGGGUAUGGAGGAGGACCUGGAGGUGGCAA: 0.435
CUGUGCUACACAUCGUAUGUACCGAAUCGGGUUUUUUUGGGAAAAAAAGGGUUUUUUUGGGAAAGUAUUAUGUUACGCCGUUCGGAUCUG: -2.53
UGGGAGGUGGAUUUUGUUUAUUUUUUAAGCUCAUUUCCAGGGGUGGGAAUUUUUUUUUAAUAUGUGUCAUGAAUAAAGUUGUUUUUGAAA: -1.01
ACCAUGCAGGUGGGCAUCUUUGGGAAGUGGGGCAAGGGGGGGAUAGGGAAAGGGGUAACACUUUGGGAACAGGUGGUCCCAGGUCGUUUC: 0.763
GUCCUGUGCUACACAUCGUAUGUACCGAAUCGGCCCCCGGGGCCCCCGGGGCCCCCGGAAAGUAUUAUGUUACGCCGUUCGGAUCUGCAC: -1.21
UAACUUUAGAGGAGGAUCUGAUGGAUAUGGCAGUGGACGUGGAUUUGGGGAUGGCUAUAAUGGGUAUGGAGGAGGACCUGGAAGUGGCAA: 0.229
CACAGACAACACGCACCCACACAGACACAGAGGGAAGGGGUUGGGAUGGGGACAGGGUGCACAGCAGGGCGGGGUAGGACCCCAGACCCU: -1.13
ACCGUGCAGGUGGGCAUCUUUGGGAAGUGGGGCAAGGGGGGGAUAGGGAGGGGGGUAACACUUUGGGAACAGGUGGUCCCAGGUCGUUUC: 1.31
CUCAAGUCCUGUGCUACACAUCGUAUGUACCGAAUCGGGAAGGGAAGGGAAGGGAAAGUAUUAUGUUACGCCGUUCGGAUCUGCACUUCC: -0.0627
UUCCGCGACUACCGGCGUGUGCACAAGCCGCCCAAGGUGCAGGAGAAGUGCCAGCUGGAGAUCAACUUCAACACGCUGCAGACCAAGCUG: -2.82

Block 4 — technique: RNA Bind-n-Seq; form: RNA; medium: in vitro; concentration: 100 nM; reference: input RNA pool; reading: higher = stronger binding; quantity: bound/input enrichment
Target: RING finger protein unkempt homolog, zinc fingers 1-6, SBP tag (UNK, Homo sapiens, UniProt Q9C0B0, residues 30-357)
Chain of UniProt Q9C0B0 (30-357, looked up): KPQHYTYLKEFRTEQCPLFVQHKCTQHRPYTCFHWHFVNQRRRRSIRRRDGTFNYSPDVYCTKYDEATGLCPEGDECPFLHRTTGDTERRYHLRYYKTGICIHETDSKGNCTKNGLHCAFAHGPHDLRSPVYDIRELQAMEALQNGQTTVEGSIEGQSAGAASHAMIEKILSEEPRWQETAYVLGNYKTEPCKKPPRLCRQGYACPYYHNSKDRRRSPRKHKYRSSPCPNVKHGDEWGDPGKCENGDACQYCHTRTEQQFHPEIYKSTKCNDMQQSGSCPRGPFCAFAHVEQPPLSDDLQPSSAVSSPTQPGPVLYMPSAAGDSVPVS
Notes: RNA with constant flanks, vertebrate orthologous sites, ends assumed
Shared flanks, not repeated: GGGAGUUCUACAGUCCGACGAUC … CAACAGAGGAUUGAGCAUCA
CAUUAACACACAAAAUGUCUCCAGGGGGGUAUUAGAUUUGAUUUCUUACAUAUAAAACCAACCAACCAACCAACCAACCAUUUUUAAAGUAGAAGAGGGUUUUAGAUAGUAAAUGAAAUA: 2.11 ratio
AAACGCAAUGGUUGAAGGCUCUGAGCUCAAAAAGAUUCGAUCUAACUCUAGGGUGUAUCACCGAUAUUUUCUUUUAGAUGCAGAUAUGCAGUCUCUGCGCUGGGAACCUUCAAAAAAGGA: 0.283 ratio
GUGUCUAAGUUUGAAAGACACUUCCUUGUAAGGCACUUUGGCUCUUCACAGCUCAUGGUAUUUACAUAUCUAUUUUUUAAAAAACAGCAGUAUGAACUCAAAGGGGAGUCACUUGGCUUG: 0.52 ratio
AGAUUUGGACCUUGGAGCCGAACUAGAGACUAGCAAAAGUAAAGCAGACUUGUAAAAUUAUAGUCAUAUGCAGCUGCACAACAAAAGCACCACCACUAGCAGCUGUGUUAAAGGAUUUAU: 0.596 ratio
UACCUCCUGAGCUUCUAGCUUUCAAGCUGUGGCUAUUUUUUUUUUUCUUUUUCUUUUCUUUAGAAUUUUUCCCCAUUUCCCACCUUCUCUUCUCCUGUUCCCAAGGUCUGACUCAUGGAU: 3.19 ratio
GUCCCUCAGUGACAGUAUGCCGUCUGUAGCAGACUCCCACUCGAGUCAUUUUUCUGAAUUUAGCUGCUCAGACUUAGAGAGCAUGAGAACGUCCUGUAGUCACGGUUCCAGCGAUUGCCA: 0.675 ratio
UUGCCUACAAUAAUGAAAACCUACAGGAAUUUUUAUUUUUCAUUUUCCCCUUAGGCAUAGUUAGUCUUUUCCCCCCCCAGGCAGAUCAUUCUGAGUGUGCGAGUGUGUGUGCACAUGUUA: 0.768 ratio
ACUGUUGUUAAGCACUGUGUUCCAGACCGUGUCGGACUUAGUGUAACCUAGGAGAUUUUAUAGUUUUAUUUUAAUGAAAUCCUGAUUGACGCAGAGCAGUGGGAAGAGCAGUGUCUUUUA: 5.22 ratio
CCUCCCCCUGACCCUAAAGUAGAUCUUUUAAAAAUUAUGUCACCACCACUUGUAAAAAUUUAGCAAUACCAGAAGAAAACGCUAAUGAAGUAAGAAAUUUUGCUCAUUGUUUUGCAAACC: 2.77 ratio
CUACUAUAAACAACUCAGGGCAGUACUCUCGAUAUCCUUACAGUAACCUGAAUCAGGGAUUAGUUAACAAUACAGGGAUGAAUCAGAAUUUAGGCCUUACAAAUAAUACUCCAAUGAAUC: 1.4 ratio
UGGUUACUGUGAUAUUGAAAUCAUGCACAGUACUCAUUUUUUUCCCUCCUCAGAUGAUUCCAUUAAUUGCCUAGAAAUAUCUUUUUCUUACCUGUUAUUUAUCAAUUUUUCCCAGUAUUU: 0.741 ratio

Repeated from above (block 1):
ATAAATTA: 0.168
ACATAATC: -0.253
ACTAAATA: 0.0228
AGAGAGGA: -0.0189
